Results gathered from unrelated publications.
Compare with care: the assays were run in different laboratories. Values joined by “and” are separate records of one study, mostly repeats; a detail may differ. Numbers after ± are the reported error.
Vesicular acetylcholine transporter: Vesicular acetylcholine transporter (Rattus norvegicus, UniProt Q62666)
Sequence of UniProt Q62666 (whole entry, looked up): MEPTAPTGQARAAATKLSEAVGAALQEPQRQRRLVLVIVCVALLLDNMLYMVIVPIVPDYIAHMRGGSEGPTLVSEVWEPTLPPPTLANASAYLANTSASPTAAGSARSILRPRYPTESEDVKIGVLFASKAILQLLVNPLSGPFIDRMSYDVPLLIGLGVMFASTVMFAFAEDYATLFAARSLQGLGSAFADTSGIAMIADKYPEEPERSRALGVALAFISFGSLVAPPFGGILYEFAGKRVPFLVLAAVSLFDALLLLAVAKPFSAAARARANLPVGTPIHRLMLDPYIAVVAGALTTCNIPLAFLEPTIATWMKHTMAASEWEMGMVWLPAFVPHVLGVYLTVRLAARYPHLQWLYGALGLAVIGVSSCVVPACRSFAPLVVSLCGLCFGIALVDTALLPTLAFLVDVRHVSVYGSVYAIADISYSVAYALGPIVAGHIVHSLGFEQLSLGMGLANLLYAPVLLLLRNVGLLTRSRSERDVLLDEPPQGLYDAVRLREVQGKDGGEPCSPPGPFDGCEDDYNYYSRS
Urea transporter 1: Urea transporter 1 (Homo sapiens, UniProt Q13336)
Sequence of UniProt Q13336 (whole entry, looked up): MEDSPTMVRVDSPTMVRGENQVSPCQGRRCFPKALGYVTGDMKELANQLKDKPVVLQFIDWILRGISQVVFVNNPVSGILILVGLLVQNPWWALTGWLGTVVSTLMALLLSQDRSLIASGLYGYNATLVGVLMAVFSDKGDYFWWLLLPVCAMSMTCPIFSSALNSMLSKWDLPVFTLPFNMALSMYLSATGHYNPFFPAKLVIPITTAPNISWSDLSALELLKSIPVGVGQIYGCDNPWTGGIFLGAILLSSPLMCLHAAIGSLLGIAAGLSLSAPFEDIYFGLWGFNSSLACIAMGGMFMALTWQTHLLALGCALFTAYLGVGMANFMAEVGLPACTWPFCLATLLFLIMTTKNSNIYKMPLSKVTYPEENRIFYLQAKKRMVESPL
Glutamate receptor ionotropic, kainate 3: Glutamate receptor ionotropic, kainate 3 (Rattus norvegicus, UniProt P42264)
Sequence of UniProt P42264 (whole entry, looked up): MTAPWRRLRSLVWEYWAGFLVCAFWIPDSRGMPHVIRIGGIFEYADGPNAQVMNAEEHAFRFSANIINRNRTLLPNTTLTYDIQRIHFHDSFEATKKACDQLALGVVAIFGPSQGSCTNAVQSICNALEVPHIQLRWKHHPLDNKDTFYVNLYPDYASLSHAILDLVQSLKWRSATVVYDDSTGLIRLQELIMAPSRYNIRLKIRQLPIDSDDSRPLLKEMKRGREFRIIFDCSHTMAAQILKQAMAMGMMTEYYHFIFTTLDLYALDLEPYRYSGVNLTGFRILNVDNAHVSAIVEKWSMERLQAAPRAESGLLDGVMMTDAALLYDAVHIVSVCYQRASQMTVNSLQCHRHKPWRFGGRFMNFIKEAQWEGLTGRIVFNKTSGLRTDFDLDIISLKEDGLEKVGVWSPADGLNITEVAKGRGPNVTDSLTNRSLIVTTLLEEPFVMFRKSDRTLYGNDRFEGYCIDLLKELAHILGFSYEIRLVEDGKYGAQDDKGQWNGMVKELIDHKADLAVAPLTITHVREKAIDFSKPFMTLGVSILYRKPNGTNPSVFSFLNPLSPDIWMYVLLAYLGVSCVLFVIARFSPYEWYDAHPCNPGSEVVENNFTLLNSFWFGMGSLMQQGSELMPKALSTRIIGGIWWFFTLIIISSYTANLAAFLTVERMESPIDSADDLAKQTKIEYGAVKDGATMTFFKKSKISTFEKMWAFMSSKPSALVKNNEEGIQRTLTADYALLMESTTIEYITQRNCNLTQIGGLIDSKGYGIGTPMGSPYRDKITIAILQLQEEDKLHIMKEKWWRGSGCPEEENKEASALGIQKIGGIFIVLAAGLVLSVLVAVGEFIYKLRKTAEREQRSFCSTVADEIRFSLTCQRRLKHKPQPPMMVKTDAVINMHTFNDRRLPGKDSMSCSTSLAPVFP
DNA polymerase III PolC V741I: DNA polymerase III PolC (Clostridioides difficile, UniProt Q18BG8, V741I)
Sequence of UniProt Q9NWT6 (whole entry, unmodified, looked up): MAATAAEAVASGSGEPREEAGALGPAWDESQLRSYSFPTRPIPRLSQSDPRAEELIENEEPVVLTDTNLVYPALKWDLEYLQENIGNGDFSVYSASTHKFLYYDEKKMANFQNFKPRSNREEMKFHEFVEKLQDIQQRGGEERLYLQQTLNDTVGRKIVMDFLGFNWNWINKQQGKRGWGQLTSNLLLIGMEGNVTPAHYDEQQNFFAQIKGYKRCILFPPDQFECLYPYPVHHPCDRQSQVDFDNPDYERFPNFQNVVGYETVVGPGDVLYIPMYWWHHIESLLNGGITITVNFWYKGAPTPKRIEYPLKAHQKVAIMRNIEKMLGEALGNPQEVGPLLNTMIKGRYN
Sequence of UniProt P50406 (whole entry, looked up): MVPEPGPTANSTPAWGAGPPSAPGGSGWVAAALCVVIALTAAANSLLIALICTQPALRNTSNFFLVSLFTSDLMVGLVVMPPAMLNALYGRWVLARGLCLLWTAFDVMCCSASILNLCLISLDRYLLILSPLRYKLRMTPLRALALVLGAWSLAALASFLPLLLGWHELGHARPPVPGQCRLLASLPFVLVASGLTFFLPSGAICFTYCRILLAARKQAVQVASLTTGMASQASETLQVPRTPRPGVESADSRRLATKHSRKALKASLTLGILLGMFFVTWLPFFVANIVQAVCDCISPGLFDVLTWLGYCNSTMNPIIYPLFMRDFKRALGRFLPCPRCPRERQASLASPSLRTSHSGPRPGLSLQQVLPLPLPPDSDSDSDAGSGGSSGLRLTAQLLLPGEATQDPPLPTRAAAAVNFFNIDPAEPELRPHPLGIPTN
Sequence of UniProt P10636 (whole entry, looked up): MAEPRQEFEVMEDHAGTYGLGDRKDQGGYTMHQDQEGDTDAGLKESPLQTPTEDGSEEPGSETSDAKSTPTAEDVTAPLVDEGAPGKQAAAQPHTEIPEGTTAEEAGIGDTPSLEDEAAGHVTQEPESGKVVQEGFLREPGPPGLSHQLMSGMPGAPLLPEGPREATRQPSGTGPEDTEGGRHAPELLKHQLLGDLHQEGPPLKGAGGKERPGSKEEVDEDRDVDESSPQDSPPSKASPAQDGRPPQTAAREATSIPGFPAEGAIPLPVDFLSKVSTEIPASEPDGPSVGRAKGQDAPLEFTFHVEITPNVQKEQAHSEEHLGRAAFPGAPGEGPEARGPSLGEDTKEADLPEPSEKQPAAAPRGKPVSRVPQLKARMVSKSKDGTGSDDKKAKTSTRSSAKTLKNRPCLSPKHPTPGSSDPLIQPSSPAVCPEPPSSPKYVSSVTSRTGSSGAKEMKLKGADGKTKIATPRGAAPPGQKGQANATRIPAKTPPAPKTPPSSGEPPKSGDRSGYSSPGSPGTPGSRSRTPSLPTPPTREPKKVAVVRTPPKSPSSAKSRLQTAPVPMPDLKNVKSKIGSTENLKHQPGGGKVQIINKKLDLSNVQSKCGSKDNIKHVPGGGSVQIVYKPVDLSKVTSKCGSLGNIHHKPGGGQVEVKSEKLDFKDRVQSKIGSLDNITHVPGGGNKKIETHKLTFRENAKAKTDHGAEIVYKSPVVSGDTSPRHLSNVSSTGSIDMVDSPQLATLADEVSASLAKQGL
Sequence of UniProt Q01469 (whole entry, looked up): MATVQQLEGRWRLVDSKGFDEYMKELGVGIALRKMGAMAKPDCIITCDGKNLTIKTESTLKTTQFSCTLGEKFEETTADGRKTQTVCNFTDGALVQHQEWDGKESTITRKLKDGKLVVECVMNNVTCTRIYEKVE
Sequence of UniProt P18508 (whole entry, looked up): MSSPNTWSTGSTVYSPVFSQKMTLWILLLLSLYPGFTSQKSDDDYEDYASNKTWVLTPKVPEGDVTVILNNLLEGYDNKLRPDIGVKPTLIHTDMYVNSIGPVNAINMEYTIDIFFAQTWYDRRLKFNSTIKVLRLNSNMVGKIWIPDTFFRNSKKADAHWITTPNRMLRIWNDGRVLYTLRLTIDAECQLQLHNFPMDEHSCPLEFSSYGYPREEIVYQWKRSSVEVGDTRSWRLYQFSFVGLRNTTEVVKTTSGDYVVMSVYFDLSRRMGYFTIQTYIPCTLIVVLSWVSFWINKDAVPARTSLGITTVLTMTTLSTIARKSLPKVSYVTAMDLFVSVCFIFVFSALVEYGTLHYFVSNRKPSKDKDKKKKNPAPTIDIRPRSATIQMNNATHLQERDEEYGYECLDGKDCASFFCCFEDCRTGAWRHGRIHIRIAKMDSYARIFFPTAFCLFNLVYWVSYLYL
Sequence of UniProt P51589 (whole entry, looked up): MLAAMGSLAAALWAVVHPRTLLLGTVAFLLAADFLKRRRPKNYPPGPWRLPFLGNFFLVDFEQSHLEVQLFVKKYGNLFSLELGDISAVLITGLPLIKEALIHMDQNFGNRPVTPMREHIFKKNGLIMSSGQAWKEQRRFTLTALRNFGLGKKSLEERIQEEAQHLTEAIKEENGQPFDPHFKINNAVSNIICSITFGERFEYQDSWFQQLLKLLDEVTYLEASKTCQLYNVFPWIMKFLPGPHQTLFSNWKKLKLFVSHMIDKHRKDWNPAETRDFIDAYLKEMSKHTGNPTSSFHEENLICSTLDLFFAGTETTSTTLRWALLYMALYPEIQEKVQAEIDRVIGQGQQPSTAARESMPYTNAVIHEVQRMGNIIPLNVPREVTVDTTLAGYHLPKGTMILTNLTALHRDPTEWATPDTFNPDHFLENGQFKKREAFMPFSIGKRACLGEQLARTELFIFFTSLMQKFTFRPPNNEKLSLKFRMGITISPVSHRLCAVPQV
Sequence of UniProt P28223 (whole entry, looked up): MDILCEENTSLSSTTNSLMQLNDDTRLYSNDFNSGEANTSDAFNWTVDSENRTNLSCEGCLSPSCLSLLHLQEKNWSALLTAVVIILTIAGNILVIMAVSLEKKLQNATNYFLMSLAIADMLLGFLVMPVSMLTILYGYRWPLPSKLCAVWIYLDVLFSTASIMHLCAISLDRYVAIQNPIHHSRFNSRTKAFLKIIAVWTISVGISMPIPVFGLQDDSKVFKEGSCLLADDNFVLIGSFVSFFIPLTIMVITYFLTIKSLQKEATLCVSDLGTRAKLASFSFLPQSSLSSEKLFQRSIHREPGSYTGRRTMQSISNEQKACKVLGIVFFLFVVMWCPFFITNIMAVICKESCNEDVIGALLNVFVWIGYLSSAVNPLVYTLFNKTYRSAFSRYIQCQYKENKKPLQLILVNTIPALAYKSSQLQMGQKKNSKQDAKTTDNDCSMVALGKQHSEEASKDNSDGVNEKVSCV

SMILES	target	test	test system	conditions	Ki
NC(=O)c1ccc[n+]([C@@H]2O[C@H](COP(=O)(O)OP(=O)(O)OC[C@H]3O[C@@H](n4cnc5c(N)ncnc54)[C@H](OP(=O)(O)O)[C@@H]3O)[C@@H](O)[C@H]2O)c1	chnB (Rhodococcus sp. HI-31, UniProt C0STX7, F507Y)	–	–	–	192 µM
OC1Cc2ccccc2CC1N1CCC2(C=Cc3cc(F)ccc32)CC1 (racemic)	Vesicular acetylcholine transporter	radioligand binding	PC12 expressing VAChT	with: [3H]vesamicol	0.018 ± 0.006 µM
N#CCC(N)=O	Urea transporter 1	urea transport inhibition	–	with: thiourea	2000 µM
O=C1CCc2cc(-c3cccc(OC(=O)[C@H]4[C@H](c5ccccc5)[C@@H](C(=O)O)[C@H]4c4ccccc4)c3)ccc2N1	FABP5 (Homo sapiens, UniProt Q01469)	binding	–	–	7.59 ± 1.11 µM
COc1cc2c(cc1OC)-c1c(OC)c(OC)cc3c1[C@H](C2)N(C)CC3	HTR2A (Homo sapiens, UniProt P28223)	binding	–	secondary	1.16 µM
CC(C)C[C@H](NC(=O)CNC(=O)[C@H](C)NC(=O)c1ccc(S(=O)(=O)NC[C@H]2O[C@@H](C)[C@@H](O)[C@@H](O)[C@@H]2O)cc1)C(=O)N[C@@H](C)C(=O)N[C@H]1CCN(c2cc3c(cc2F)c(=O)c(C(=O)O)cn3C2CC2)C1	fucose-binding lectin LecB (Pseudomonas aeruginosa, UniProt A0A0H2ZE85)	binding, competitive fluorescence polarization	–	–	0.27 ± 0.06 µM
C=CC(N)=O	Urea transporter 1	urea transport inhibition	–	with: thiourea	100000 µM
O=C(O)CCC(=O)C(=O)O	HIF1AN (Homo sapiens, UniProt Q9NWT6, Q147A)	cosubstrate	–	pH 7.00, 37.0 °C, mutant Q147A, with: CTAD peptide 100 µM	200 µM and ~300 µM
Cc1ccc2c(c1)C=CC21CCN(C2Cc3ccccc3CC2O)CC1 (racemic)	Vesicular acetylcholine transporter	binding, radioligand displacement	PC12 expressing VAChT	with: [3H]vesamicol	0.0087 ± 0.0001 µM
FCCN1CC=C(c2ccc3c(n2)[nH]c2ccncc23)CC1	Microtubule-associated protein tau, PSP brain aggregates (MAPT, Homo sapiens, UniProt P10636)	binding	PSP human brain tissue	with: [3H]PI-2620	0.0279 µM
NC(CC1(C(=O)O)CC2OC(CO)C(O)C(N)C2O1)C(=O)O (stereo not shown)	Glutamate receptor ionotropic, kainate 3	binding, [3H]kainate displacement	HEK293T/17 membranes	with: [3H]kainate	0.397 µM
CC[C@@]1(O)C[C@H](O[C@H]2C[C@H](N(C)C)[C@H](O[C@H]3C[C@H](O)[C@H](O[C@H]4CCC(=O)[C@H](C)O4)[C@H](C)O3)[C@H](C)O2)c2c(cc3c(c2O)C(=O)c2c(O)cccc2C3=O)[C@H]1C(=O)OC	Cytochrome P450 2J2 (CYP2J2, Homo sapiens, UniProt P51589)	competitive fluorescence polarization	phosphate buffer, cholate	2 min, pH 7.4, with: ebastine 60 µM	35.6 ± 2.56 µM
COc1cccc(-n2nc3c4cc(Cl)ccc4[nH]cc-3c2=O)c1	Gabrg2/Gabra1, α1+/γ2− interface (Rattus norvegicus, UniProt P18508+P62813)	–	rat cerebellar membranes	with: [3H]flunitrazepam	0.00017 ± 7e-06 µM
Cn1cnc2c(=O)[nH]c(NCc3ccc(Cl)c(Cl)c3)nc21	DNA polymerase III PolC V741I	enzyme activity, inhibitor	–	truncated, dGTP omitted, 4% DMSO	~100 µM
NC(=S)Nc1ccccc1	Urea transporter 1	urea transport inhibition	–	with: thiourea	400 µM
Cc1ccc(Nc2cc(O)nc(O)n2)cc1Cl	DNA polymerase III PolC V741I	enzyme activity, inhibitor	–	truncated, dGTP omitted, 4% DMSO	6.2 µM
COCC1OC2CC(CC(N)C(=O)O)(C(=O)O)OC2C(O)C1O (stereo not shown)	Glutamate receptor ionotropic, kainate 3	[3H]kainate displacement	HEK-293T/17 membranes	–	14.5 µM
OC1Cc2ccccc2CC1N1CCC2(C=Cc3ccc(F)cc32)CC1 (racemic)	Vesicular acetylcholine transporter	radioligand binding	PC12 expressing VAChT	with: [3H]vesamicol	0.006 ± 0.0004 µM
O=C(NO)c1ccc(CN2CCN(c3cccc4cc(S(=O)(=O)c5cccc(F)c5)cnc34)CC2)c(F)c1	HTR6 (Homo sapiens, UniProt P50406)	binding	–	–	0.0007 µM

Some of these lines once more:
SMILES	target	test	test system	conditions	Ki
NC(CC1(C(=O)O)CC2OC(CO)C(O)C(N)C2O1)C(=O)O (stereo not shown)	Glutamate receptor ionotropic, kainate 3	binding, [3H]kainate displacement	HEK293T/17 membranes	with: [3H]kainate	0.397 µM
CC[C@@]1(O)C[C@H](O[C@H]2C[C@H](N(C)C)[C@H](O[C@H]3C[C@H](O)[C@H](O[C@H]4CCC(=O)[C@H](C)O4)[C@H](C)O3)[C@H](C)O2)c2c(cc3c(c2O)C(=O)c2c(O)cccc2C3=O)[C@H]1C(=O)OC	Cytochrome P450 2J2 (CYP2J2, Homo sapiens, UniProt P51589)	competitive fluorescence polarization	phosphate buffer, cholate	2 min, pH 7.4, with: ebastine 60 µM	35.6 ± 2.56 µM
